Measured values from different studies.
± marks the error that the study gave.
IDE: Insulin-degrading enzyme (IDE, Homo sapiens, UniProt P14735)
PLA2G6: 85/88 kDa calcium-independent phospholipase A2 (PLA2G6, Homo sapiens, UniProt O60733)
Neuropeptide FF receptor 2: Neuropeptide FF receptor 2 (Homo sapiens, UniProt Q9Y5X5)
Methyl-accepting chemotaxis protein CtaA sensing domain: Methyl-accepting chemotaxis protein CtaA, sensing domain (Pseudomonas fluorescens, UniProt Q3K7T6)
WDR5/DCAF1: WDR5/DCAF1 (Homo sapiens, UniProt P61964+Q9Y4B6)
NPFFR1: Neuropeptide FF receptor 1 (NPFFR1, Homo sapiens, UniProt Q9GZQ6)

| SMILES | target | assay | test system | conditions | endpoint | value |
| --- | --- | --- | --- | --- | --- | --- |
| Cc1ncsc1-c1ccc(CNC(=O)[C@@H]2C[C@@H](O)CN2C(=O)[C@@H](NC(=O)CCCNC(=O)c2ccc(-c3cnc(NCc4ccco4)n4cnnc34)cc2)C(C)(C)C)cc1 | Polycomb protein EED (EED, Homo sapiens, UniProt O75530) | degrader, western blot | HeLa | 24 h | DC50 | 0.79 ± 0.14 µM |
| CC(C)[C@H](N)C(=O)O | Methyl-accepting chemotaxis protein CtaA (Pseudomonas fluorescens, UniProt Q3K7T6) | binding, ITC | – | – | Kd | 4 ± 1 µM |
| NS(=O)(=O)c1cccn(O)c1=S | IDE | substrate degradation, inhibitor | – | mean of insulin, Aβ, substrate V | Ki | 50 µM |
| CCC[C@H]1OC(=O)[C@@H]1CCCc1ccc(OC)cc1 (racemic) | PLA2G6 | enzyme activity, inhibitor, mixed micelle | – | 50% inhibition | XI(50) | 0.00019 mole fraction |
| O[C@H](c1cc(C(F)(F)F)nc2c(C(F)(F)F)cccc12)[C@H]1CCCCN1 | Pannexin-1 (Panx1, Mus musculus, UniProt Q9JIP4) | ion current, blocker, whole-cell patch clamp | Neuro2A transfected with Panx1-GFP | added: voltage ramp depolarization | EC50 | 0.8 ± 0.25 µM |
| CNC(=O)[C@@H]1C[C@H](NCc2ccc(OC)cc2)CN1Cc1ccccc1Cl | Neuropeptide FF receptor 2 | calcium signal, antagonist, fluorescence | – | – | Kb | > 10 µM |
| Cc1cc(NC(=O)CS(=O)(=O)c2cn(Cc3ccccc3Cl)c3ccccc23)no1 | Muscarinic acetylcholine receptor M1 (Chrm1, Rattus norvegicus, UniProt P08482) | calcium signal, agonist | – | – | EC50 | ~13 µM |
| CC(C)C[C@H](N)C(=O)O | Methyl-accepting chemotaxis protein CtaA sensing domain | binding, thermal shift, unfolding equilibrium | – | 25 °C | Kd | 13 ± 3 µM |
| O=S(=O)(Nc1cccn(O)c1=S)c1ccc(-c2ccccc2)s1 | IDE | substrate degradation, inhibitor | – | mean of insulin, Aβ, substrate V | Ki | 23 µM |
| COc1ccc(CN[C@H]2C[C@@H](C(=O)NCCc3ccc(NC(C)=O)cc3)N(Cc3ccccc3Cl)C2)cc1 | Neuropeptide FF receptor 2 | calcium signal, antagonist, fluorescence | – | – | Kb | > 10 µM |
| O=C(O)c1cc(NC(=O)C2CC2c2ccccc2)ccc1O (centres unmarked) | GTPase KRas (KRAS, Homo sapiens, UniProt P01116, Q61H) | microscale thermophoresis | – | second low-affinity site, added: GNP-bound | Kd | 3.5 µM |
| O=C(CSc1nnc(NCc2ccccc2)s1)NCC1CCCCC1 | Glutamate NMDA receptor; Grin1/Grin2a (Grin1/Grin2a, Rattus norvegicus, UniProt P35439+Q00959) | ion current, antagonist, two-electrode voltage clamp | Xenopus laevis oocytes | mean of individual Schild values | Kb | 2.2 ± 0.2 µM |
| Cc1cc(NS(=O)(=O)c2cccs2)c(=S)n(O)c1 | IDE | substrate degradation, inhibitor | – | mean of insulin, Aβ, substrate V | Ki | 12 µM |
| CCCNC(=O)[C@@H]1C[C@H](NCc2ccc(OC)cc2)CN1Cc1ccccc1Cl | Neuropeptide FF receptor 2 | calcium signal, antagonist, fluorescence | – | – | Kb | > 10 µM |
| C[C@H](N)C(=O)O | Methyl-accepting chemotaxis protein CtaA sensing domain | binding, thermal shift, zero heat capacity | – | 25 °C | Kd | 6.3 ± 0.4 µM |
| Nc1nc2c(ncn2[C@@H]2O[C@H](COP(=O)(O)OP(=O)(O)OP(=O)(O)O)[C@@H](O)[C@H]2O)c(=O)[nH]1 | tRNA(His) guanylyltransferase (THG1, Saccharomyces cerevisiae, UniProt P53215, R27A) | nucleotidyl transfer, substrate, single-turnover kinetics | – | pH 7.5, room temperature, added: ppp-tRNA(His) | Kd | 230 ± 60 µM |
| Cn1cc(S(=O)(=O)Nc2cccn(O)c2=S)cn1 | IDE | substrate degradation, fluorescence polarisation | – | mean of physiological substrates | Ki | 15 µM |
| N[C@@H](CO)C(=O)O | Methyl-accepting chemotaxis protein CtaA sensing domain | binding, thermal shift, unfolding equilibrium | – | 25 °C | Kd | 5 ± 2 µM |
| Nc1ncnc2c1ncn2[C@@H]1O[C@H](COP(=O)(O)OP(=O)(O)OC[C@H]2O[C@@H](O)C(O)[C@H]2O)C(O)[C@@H]1OP(=O)(O)O (some centres unmarked) | TRPM2 (Nematostella vectensis, UniProt A7T1N0) | channel activation, agonist, inside-out patch clamp | Xenopus oocytes | -20 mV, added: 125 µM Ca2+ | EC50 | 0.42 ± 0.04 µM |
| CNC(=O)c1ccc(CCNC(=O)[C@@H]2C[C@H](NCc3ccc(OC)cc3)CN2Cc2ccccc2Cl)cc1 | Neuropeptide FF receptor 2 | calcium signal, antagonist, fluorescence | – | – | Kb | > 10 µM |
| C[C@@H]1CN(c2ccc(-c3cc(C(=O)NCCOCCOCCOCCOCCNC(=O)Cn4cc(-c5[nH]cc(C(=O)N[C@@H](CC(N)=O)c6ccc(F)c(Cl)c6)c5-c5ccc(Cl)cc5F)cn4)ccc3F)cc2NC(=O)c2c[nH]c(=O)cc2C(F)(F)F)C[C@H](C)N1C | WDR5/DCAF1 | degrader, refers to: HiBiT-WDR5 | MV4-11 expressing HiBiT-WDR5 | 24 h | DC50 | 0.2 ± 0.028 µM |

| SMILES | target | assay | test system | conditions | endpoint | value |
| --- | --- | --- | --- | --- | --- | --- |
| O=S(=O)(Nc1cccn(O)c1=S)c1ccsc1 | IDE | substrate degradation, fluorescence polarisation | – | mean of physiological substrates | Ki | 12 µM |
| NC(=O)[C@@H]1CCCC[C@@H]1C(=O)Nc1ccc(Cl)c(Cl)c1 | Grm2/Grm4 (Rattus norvegicus, UniProt P31421+P31423) | positive allosteric modulator, thallium flux | HEK293 with GIRK | added: EC20 glutamate | EC50 | 1.9 µM |
| On1ccccc1=S | IDE | substrate degradation, inhibitor | – | mean of insulin, Aβ, substrate V | Ki | 86 µM |
| CCCC(=O)OCC | Or22a (Drosophila melanogaster, UniProt P81909) | neuronal calcium response, agonist, in vivo calcium imaging | antennal neurons | headspace vapour concentration | EC50 | 36.5 ppm |
| C[C@@H]1CN(c2ccc(-c3cc(C(=O)NCCOCCOCCOCCOCCNC(=O)/C=C/c4[nH]cc(C(=O)N[C@@H](CC(N)=O)c5ccc(F)c(Cl)c5)c4-c4ccc(Cl)cc4F)ccc3F)cc2NC(=O)c2c[nH]c(=O)cc2C(F)(F)F)C[C@H](C)N1C | WDR5/DCAF1 | degrader, refers to: HiBiT-WDR5 | MV4-11 expressing HiBiT-WDR5 | 24 h | DC50 | 0.288 ± 0.137 µM |
| Cc1ccc(S(=O)(=O)Nc2cccn(O)c2=S)s1 | IDE | substrate degradation, fluorescence polarisation | – | mean of physiological substrates | Ki | 10 µM |
| CC(C)C[C@H](NC(=O)[C@H](CCCNC(=N)N)NC(=O)[C@H](CC(C)C)NC(=O)[C@H](CO)NC(=O)[C@@H]1CCCN1C(=O)[C@@H](N)CO)C(=O)N[C@@H](CCCNC(=N)N)C(=O)N[C@@H](Cc1ccccc1)C(N)=O | Short neuropeptide F receptor (Drosophila melanogaster, UniProt Q9VW75) | calcium mobilization, agonist | HEK-293T transfected, Gα16 | 37 °C | EC50 | 0.00589 ± 0.00374 µM |
| CC(C)(C)Nc1nc2cc(Cl)c(Cl)cc2nc1S(C)(=O)=O | Gasdermin-D (GSDMD, Homo sapiens, UniProt P57764) | pore formation, activator, liposome leakage | – | – | EC50 | ~0.9 µM |
| O=c1[nH]c2ccccc2n1C1CCN(CCCC(c2ccc(F)cc2)c2ccc(F)cc2)CC1 | Multidrug resistance-associated protein 1 (ABCC1, Homo sapiens, UniProt P33527) | efflux, inhibitor, flow cytometry | SupT1 cells overexpressing ABCC1 | added: rhodamine B hexyl ester 500 nM | IC50 | 2.6 ± 2.3 µM |
| CCOC(=O)Nc1ccc(SCCN2CCCCC2)nc1N | Voltage-gated potassium channel, KQT; KCNQ2(Kv7.2)/KCNQ3(Kv7.3) (KCNQ3/KCNQ2, Homo sapiens, UniProt O43525+O43526) | thallium flux, opener, fluorescence thallium flux | HEK293 expressing KV7.2/3 | 30 min | EC50 | > 10 µM |
| O=S(=O)(Nc1cccn(O)c1=S)C1CC1 | IDE | substrate degradation, fluorescence polarisation | – | mean of physiological substrates | Ki | 32 µM |
| CC(CCC[C@@H](C)[C@H]1CC[C@H]2C3=CCC4CC(=O)C=C[C@]4(C)[C@H]3CC[C@]12C)C(=O)O (some centres unmarked) | daf-12 (Caenorhabditis elegans, UniProt G5EFF5) | reporter gene, agonist, luciferase | – | – | EC50 | 0.146 µM |
| CC(C)[C@H](NC(=O)CC[C@@H](C)[C@H]1CC[C@H]2[C@@H]3[C@H](O)C[C@@H]4C[C@H](O)CC[C@]4(C)[C@H]3CC[C@]12C)C(=O)O | Hepatic sodium/bile acid cotransporter (SLC10A1, Homo sapiens, UniProt Q14973) | transporter uptake, inhibitor, radiometric | – | – | Ki | 6.1 µM |
| Nc1ncnc2c1ncn2[C@@H]1O[C@H](COP(=O)(O)OP(=O)(O)OP(=O)(O)O)[C@@H](O)[C@H]1O | tRNA(His) guanylyltransferase (THG1, Saccharomyces cerevisiae, UniProt P53215, R133A) | tRNA(His) adenylylation, substrate, single-turnover kinetics | – | pH 6.0, room temperature, added: p-tRNA(His) | Kd | 170 ± 40 µM |
| CCOc1ccc2c(c1)C1(CCC(OCCN3CCOCC3)CC1)C(=O)N2S(=O)(=O)c1ccc(C(=O)NC(C)(C)C)cc1OC (centres unmarked) | Vasopressin V2 receptor (AVPR2, Homo sapiens, UniProt P30518, L83Q) | rescue of cAMP response, cAMP-Glo luminescence | HeLa, mutant receptor expressed | without doxycycline, added: vasopressin EC100 | EC50 | 0.00197 ± 0.00025 µM |
| CCC[C@@H]1OC(=O)[C@@H]1CCCCc1ccccc1 (racemic) | PLA2G6 | enzyme activity, inhibitor, lipidomics mixed micelle | – | – | XI(50) | 0.007 mole fraction |
| COc1ccc(CN[C@H]2C[C@@H](C(=O)NCCc3ccc(C(C)=O)cc3)N(Cc3ccccc3Cl)C2)cc1 | NPFFR1 | calcium mobilization, antagonist | CHO | 15 min, added: NPFF | Kb | > 10 µM |
| CCCCCCOc1ccc(CCCCC(=O)C(=O)NCCCC(=O)OCC)cc1 | PLA2G6 | enzyme activity, inhibitor, mixed micelle | – | – | XI(50) | 0.013 mole fraction |
| COc1ccc(CN[C@H]2C[C@@H](C(=O)NCCc3ccc(OC)c(OC)c3)N(Cc3ccccc3Cl)C2)cc1 | NPFFR1 | calcium mobilization, antagonist | CHO | 15 min, added: NPFF | Kb | 1.03 ± 0.05 µM |
| CCC[C@H]1OC(=O)[C@@H]1CCCc1ccccc1 (racemic) | PLA2G6 | enzyme activity, inhibitor, mixed micelle | – | 50% inhibition | XI(50) | 0.00019 mole fraction |
